Results pooled from the literature.
Compare with care: the assays were run in different laboratories. ± gives the spread as reported.

Structure (SMILES) = CC[C@H](C)[C@H](NC(=O)[C@@H](Cc1c[nH]c2ccccc12)NC(=O)[C@@H]1CCCN1C(=O)[C@H](CCCCN)NC(=O)[C@H](CCCCN)NC(=O)CCNC(=O)CCNC(=O)CN1CCN(CC(=O)O)CCN(CC(=O)O)CCN(CC(=O)O)CC1)C(=O)N[C@@H](C[Si](C)(C)C)C(=O)O [gallium-68 labelled]; system = nude mouse HT-29 xenograft, colon; conditions = 90 min; tissue uptake = 0.45 ± 0.33 %ID/g
Structure (SMILES) = CSCC[C@H](NC(=O)CNC(=O)[C@H](CCCCN)NC(=O)[C@H](CC(C)C)NC(=O)[C@@H]1CCCN1C(=O)[C@H](CO)NC(=O)[C@H](Cc1c[nH]cn1)NC(=O)[C@H](Cc1c[nH]c2ccccc12)NC(=O)[C@H](CCCNC(=N)N)NC(=O)[C@H](CC(C)C)NC(=O)[C@H](CCCNC(=N)N)NC(=O)[C@H](Cc1c[nH]c2ccccc12)NC(=O)[C@H](CS)NC(=O)CCCCCNC(=O)CN1CCN(CC(=O)O)CCN(CC(=O)O)CCN(CC(=O)O)CC1)C(=O)O [copper-64 labelled]; assay = PET; system = C57BL/6J mice, B16-F10 tumour, liver; conditions = intravenous, 25 h; tissue uptake = 6.78 ± 0.36 %ID/g
Structure (SMILES) = CCCC[C@H]1C(=O)N(C)[C@@H](CCCC)C(=O)N[C@@H](CCCNC(=O)CN2CCN(CC(=O)O)CCN(CC(=O)O)CCN(CC(=O)O)CC2)C(=O)N[C@H](C(=O)NCC(N)=O)CSCC(=O)N[C@@H](Cc2ccc(O)cc2)C(=O)N(C)[C@@H](C)C(=O)N[C@@H](CC(N)=O)C(=O)N2CCC[C@H]2C(=O)N[C@@H](Cc2c[nH]cn2)C(=O)N[C@@H](CC(C)C)C(=O)N(C)CC(=O)N[C@@H](Cc2c[nH]c3ccccc23)C(=O)N[C@@H](CO)C(=O)N[C@@H](Cc2c[nH]c3ccccc23)C(=O)N1C [gallium-68 labelled]; system = NOD/SCID mice with CHO-hPD-L1 xenograft, spleen; conditions = 30 min post injection; tissue uptake = 3.27 ± 0.23 %ID/g
Structure (SMILES) = CC[C@H](C)[C@H](NC(=O)[C@H](CCCCN)NC(=O)CNC(=O)[C@H](CC(C)C)NC(=O)[C@H](Cc1ccccc1)NC(=O)[C@H](CCCCN)NC(=O)[C@H](CO)NC(=O)[C@H](Cc1ccccc1)NC(=O)[C@H](Cc1c[nH]c2ccccc12)NC(=O)[C@H](CCC(N)=O)NC(=O)[C@@H](NC(=O)[C@H](Cc1ccccc1)NC(=O)CCCCCNC(=O)CN1CCN(CC(=O)O)CCN(CC(=O)O)CCN(CC(=O)O)CC1)C(C)C)C(=O)N[C@@H](CCC(=O)O)C(=O)N1CCC[C@H]1C(=O)N[C@@H](CC(=O)O)C(=O)N[C@H](C(=O)N[C@@H](CO)C(=O)N[C@@H](CCC(N)=O)C(=O)N[C@H](C(=O)N[C@@H](CCC(N)=O)C(=O)N[C@@H](CC(=O)O)C(=O)N1CCC[C@H]1C(=O)N[C@@H](CC(N)=O)C(=O)N[C@@H](CC(=O)O)C(=O)N[C@@H](CCC(N)=O)C(=O)N[C@@H](Cc1ccc(O)cc1)C(=O)N[C@@H](CCC(=O)O)C(=O)N1CCC[C@H]1C(=O)N[C@@H](Cc1ccccc1)C(=O)O)C(C)C)C(C)C [copper-64 labelled]; system = C57BL/6 mice, male, tumour-free, spleen; conditions = 0.5 h; tissue uptake = 2.72 ± 0.3 %ID/g
Structure (SMILES) = CC[C@H](C)[C@H](NC(=O)[C@H](CCCNC(=N)N)NC(=O)[C@H](CCCCN)NC(=O)[C@H](Cc1ccc(O)cc1)NC(=O)[C@H](CC(=O)O)NC(=O)[C@H](C)NC(=O)CNC(=O)CCOCCOCCOCCNC(=O)CN1CCN(CC(=O)O)CCN(CC(=O)O)CCN(CC(=O)O)CC1)C(=O)N[C@H](C(=O)N[C@@H](CC(C)C)C(=O)N[C@@H](CCCCN)C(=O)N[C@H](C(=O)N[C@@H](CC(N)=O)C(N)=O)C(C)C)[C@@H](C)O [copper-64 labelled]; assay = ex vivo gamma counting; system = C57BL/6J male mice, B16-F10 tumour, testis; conditions = intravenous, 1.85 MBq, 5 min; tissue uptake = 1.21 ± 0.383 %ID/g
Structure (SMILES) = CN1Cc2cc(Cl)ccc2-n2c(nnc2C2CCN(c3cccc([18F])n3)CC2)C1; system = C57BL/6 mouse male, brain; conditions = intravenous, dose not given, 5 min, added: blocking agent 10 mg/kg; tissue uptake = 2.83 ± 0.95 %ID/g
Structure (SMILES) = C[C@H](O)[C@@H](NC(=O)[C@H]1CCCN1C(=O)[C@@H](CCCCN)NC(=O)[C@@H](CO)NC(=O)[C@@H](Cc1ccc(O)cc1)NC(=O)[C@@H](CC(N)=O)NC(=O)CCOCCOCCOCCNC(=O)CN1CCN(CC(=O)O)CCN(CC(=O)O)CCN(CC(=O)O)CC1)C(=O)N[C@H](CC(=O)O)C(=O)N[C@H](CCCNC(=N)N)C(=O)N[C@H](CCC(N)=O)C(=O)N[C@H](Cc1ccc(O)cc1)C(=O)N[C@H](Cc1c[nH]cn1)C(=O)N[C@H](Cc1ccccc1)C(N)=O [gallium-68 labelled]; system = BALB/c nude mice U-87 MG tumour, kidney; conditions = intravenous, 1.85 MBq, 1 h, radiolabelled; tissue uptake = 11.5 ± 0.44 %ID/g
Structure (SMILES) = CC[C@H](C)[C@H](NC(=O)[C@H](CCCNC(=N)N)NC(=O)[C@H](CCCCN)NC(=O)[C@H](Cc1ccc(O)cc1)NC(=O)[C@H](CC(=O)O)NC(=O)[C@H](C)NC(=O)CNC(=O)CCOCCOCCOCCNC(=O)CN1CCN(CC(=O)O)CCN(CC(=O)O)CCN(CC(=O)O)CC1)C(=O)N[C@H](C(=O)N[C@H](C(=O)N[C@@H](CCCCN)C(=O)N[C@H](C(=O)N[C@@H](CC(N)=O)C(N)=O)C(C)C)C(C)C)[C@@H](C)O [copper-64 labelled]; assay = ex vivo gamma counting; system = C57BL/6J male mice, B16-F10 tumour, thymus; conditions = intravenous, 1.85 MBq, 40 min; tissue uptake = 0.938 ± 0.047 %ID/g

Repeated from above:
Structure (SMILES) = CC[C@H](C)[C@H](NC(=O)[C@H](CCCNC(=N)N)NC(=O)[C@H](CCCCN)NC(=O)[C@H](Cc1ccc(O)cc1)NC(=O)[C@H](CC(=O)O)NC(=O)[C@H](C)NC(=O)CNC(=O)CCOCCOCCOCCNC(=O)CN1CCN(CC(=O)O)CCN(CC(=O)O)CCN(CC(=O)O)CC1)C(=O)N[C@H](C(=O)N[C@H](C(=O)N[C@@H](CCCCN)C(=O)N[C@H](C(=O)N[C@@H](CC(N)=O)C(N)=O)C(C)C)C(C)C)[C@@H](C)O [copper-64 labelled]; assay = ex vivo gamma counting; system = C57BL/6J male mice, B16-F10 tumour, thymus; conditions = intravenous, 1.85 MBq, 40 min; tissue uptake = 0.938 ± 0.047 %ID/g
